Measured values gathered from unrelated publications.
Protocols differ between the studies behind these lines.
UniProt Q13976, sequence (whole entry, looked up): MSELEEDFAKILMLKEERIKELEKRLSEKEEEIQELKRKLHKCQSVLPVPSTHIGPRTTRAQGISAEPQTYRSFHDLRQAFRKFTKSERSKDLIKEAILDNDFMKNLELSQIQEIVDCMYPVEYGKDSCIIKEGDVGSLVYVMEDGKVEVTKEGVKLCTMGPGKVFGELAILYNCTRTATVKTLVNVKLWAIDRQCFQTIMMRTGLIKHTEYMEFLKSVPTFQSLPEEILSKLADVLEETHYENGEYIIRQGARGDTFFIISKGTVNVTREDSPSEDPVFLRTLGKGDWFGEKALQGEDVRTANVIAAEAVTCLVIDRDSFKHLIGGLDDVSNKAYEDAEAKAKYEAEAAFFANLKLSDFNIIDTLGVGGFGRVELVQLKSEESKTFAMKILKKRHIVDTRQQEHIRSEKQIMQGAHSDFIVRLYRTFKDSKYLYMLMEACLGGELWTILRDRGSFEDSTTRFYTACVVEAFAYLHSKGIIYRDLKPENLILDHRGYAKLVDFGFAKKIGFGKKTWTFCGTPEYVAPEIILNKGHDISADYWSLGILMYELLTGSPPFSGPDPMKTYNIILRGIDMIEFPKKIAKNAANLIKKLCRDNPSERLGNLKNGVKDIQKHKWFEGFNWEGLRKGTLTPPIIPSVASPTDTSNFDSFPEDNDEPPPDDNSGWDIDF
UniProt P51813, sequence (whole entry, looked up): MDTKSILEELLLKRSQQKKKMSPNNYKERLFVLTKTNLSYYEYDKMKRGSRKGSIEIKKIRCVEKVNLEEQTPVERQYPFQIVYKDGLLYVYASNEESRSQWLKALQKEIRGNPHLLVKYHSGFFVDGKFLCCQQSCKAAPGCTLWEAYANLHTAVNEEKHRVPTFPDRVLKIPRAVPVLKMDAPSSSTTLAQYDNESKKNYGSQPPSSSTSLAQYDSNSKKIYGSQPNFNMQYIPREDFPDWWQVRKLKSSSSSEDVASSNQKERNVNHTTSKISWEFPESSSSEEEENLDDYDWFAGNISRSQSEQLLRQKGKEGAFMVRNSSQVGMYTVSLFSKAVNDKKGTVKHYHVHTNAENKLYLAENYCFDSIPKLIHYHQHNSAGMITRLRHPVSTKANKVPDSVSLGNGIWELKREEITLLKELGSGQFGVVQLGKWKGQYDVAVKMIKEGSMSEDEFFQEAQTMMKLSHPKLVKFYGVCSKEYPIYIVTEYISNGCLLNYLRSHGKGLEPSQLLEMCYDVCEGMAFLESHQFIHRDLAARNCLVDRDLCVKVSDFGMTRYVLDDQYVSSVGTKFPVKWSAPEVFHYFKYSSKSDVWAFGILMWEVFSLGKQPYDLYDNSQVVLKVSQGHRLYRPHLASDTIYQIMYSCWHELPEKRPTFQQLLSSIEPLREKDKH
UniProt P10721, sequence (whole entry, unmodified, looked up): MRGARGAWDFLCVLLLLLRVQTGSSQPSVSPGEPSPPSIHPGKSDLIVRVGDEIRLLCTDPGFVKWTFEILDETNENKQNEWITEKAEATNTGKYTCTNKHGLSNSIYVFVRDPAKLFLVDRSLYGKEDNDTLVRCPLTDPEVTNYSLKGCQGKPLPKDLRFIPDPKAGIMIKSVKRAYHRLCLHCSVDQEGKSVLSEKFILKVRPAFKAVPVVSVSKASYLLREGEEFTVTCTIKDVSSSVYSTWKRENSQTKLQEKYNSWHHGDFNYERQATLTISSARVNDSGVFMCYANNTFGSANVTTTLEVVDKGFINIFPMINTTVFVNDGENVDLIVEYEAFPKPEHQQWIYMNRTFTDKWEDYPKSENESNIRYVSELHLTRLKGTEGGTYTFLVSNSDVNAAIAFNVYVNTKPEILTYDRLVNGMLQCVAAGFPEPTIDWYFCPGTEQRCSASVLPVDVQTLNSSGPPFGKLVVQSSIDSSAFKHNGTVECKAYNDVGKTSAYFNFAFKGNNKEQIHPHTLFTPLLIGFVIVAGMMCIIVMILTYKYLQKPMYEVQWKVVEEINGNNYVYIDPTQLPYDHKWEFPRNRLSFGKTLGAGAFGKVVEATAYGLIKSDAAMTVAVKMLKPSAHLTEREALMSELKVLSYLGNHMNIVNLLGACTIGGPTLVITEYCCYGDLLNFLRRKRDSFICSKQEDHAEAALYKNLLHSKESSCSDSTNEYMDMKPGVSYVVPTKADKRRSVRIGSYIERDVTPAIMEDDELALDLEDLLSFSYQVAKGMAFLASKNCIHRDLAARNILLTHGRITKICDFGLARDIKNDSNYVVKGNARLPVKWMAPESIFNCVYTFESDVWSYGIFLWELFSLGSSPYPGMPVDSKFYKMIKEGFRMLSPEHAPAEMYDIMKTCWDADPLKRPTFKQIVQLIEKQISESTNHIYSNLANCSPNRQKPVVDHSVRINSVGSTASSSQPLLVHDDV
UniProt Q9UKI8, sequence (whole entry, looked up): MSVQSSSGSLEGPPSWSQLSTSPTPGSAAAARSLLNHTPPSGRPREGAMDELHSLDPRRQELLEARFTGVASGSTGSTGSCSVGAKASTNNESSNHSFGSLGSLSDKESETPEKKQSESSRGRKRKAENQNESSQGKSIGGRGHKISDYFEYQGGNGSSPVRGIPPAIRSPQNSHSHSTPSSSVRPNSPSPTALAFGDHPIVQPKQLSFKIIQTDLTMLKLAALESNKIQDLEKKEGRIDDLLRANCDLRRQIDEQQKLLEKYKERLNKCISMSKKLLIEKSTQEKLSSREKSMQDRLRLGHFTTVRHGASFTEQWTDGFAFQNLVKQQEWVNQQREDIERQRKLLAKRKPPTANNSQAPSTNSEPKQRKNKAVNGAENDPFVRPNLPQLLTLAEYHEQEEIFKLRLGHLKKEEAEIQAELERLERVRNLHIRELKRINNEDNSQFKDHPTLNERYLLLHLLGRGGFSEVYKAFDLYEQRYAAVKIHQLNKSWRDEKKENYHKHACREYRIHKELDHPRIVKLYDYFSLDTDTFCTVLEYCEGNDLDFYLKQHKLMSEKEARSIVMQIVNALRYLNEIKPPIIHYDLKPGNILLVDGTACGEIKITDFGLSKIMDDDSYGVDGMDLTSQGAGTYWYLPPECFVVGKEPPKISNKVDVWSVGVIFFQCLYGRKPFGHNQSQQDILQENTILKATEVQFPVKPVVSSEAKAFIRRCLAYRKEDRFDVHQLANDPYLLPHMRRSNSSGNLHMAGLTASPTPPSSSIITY
UniProt O75716, sequence (whole entry, looked up): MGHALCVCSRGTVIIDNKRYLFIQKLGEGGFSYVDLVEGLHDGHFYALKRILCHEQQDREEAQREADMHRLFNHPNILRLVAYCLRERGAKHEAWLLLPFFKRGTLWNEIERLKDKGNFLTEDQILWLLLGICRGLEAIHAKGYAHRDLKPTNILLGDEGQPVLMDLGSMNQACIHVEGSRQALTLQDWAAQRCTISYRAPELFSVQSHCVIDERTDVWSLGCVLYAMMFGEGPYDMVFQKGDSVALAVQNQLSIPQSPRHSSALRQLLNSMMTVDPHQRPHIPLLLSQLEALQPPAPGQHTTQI
UniProt P35968, sequence (whole entry, looked up): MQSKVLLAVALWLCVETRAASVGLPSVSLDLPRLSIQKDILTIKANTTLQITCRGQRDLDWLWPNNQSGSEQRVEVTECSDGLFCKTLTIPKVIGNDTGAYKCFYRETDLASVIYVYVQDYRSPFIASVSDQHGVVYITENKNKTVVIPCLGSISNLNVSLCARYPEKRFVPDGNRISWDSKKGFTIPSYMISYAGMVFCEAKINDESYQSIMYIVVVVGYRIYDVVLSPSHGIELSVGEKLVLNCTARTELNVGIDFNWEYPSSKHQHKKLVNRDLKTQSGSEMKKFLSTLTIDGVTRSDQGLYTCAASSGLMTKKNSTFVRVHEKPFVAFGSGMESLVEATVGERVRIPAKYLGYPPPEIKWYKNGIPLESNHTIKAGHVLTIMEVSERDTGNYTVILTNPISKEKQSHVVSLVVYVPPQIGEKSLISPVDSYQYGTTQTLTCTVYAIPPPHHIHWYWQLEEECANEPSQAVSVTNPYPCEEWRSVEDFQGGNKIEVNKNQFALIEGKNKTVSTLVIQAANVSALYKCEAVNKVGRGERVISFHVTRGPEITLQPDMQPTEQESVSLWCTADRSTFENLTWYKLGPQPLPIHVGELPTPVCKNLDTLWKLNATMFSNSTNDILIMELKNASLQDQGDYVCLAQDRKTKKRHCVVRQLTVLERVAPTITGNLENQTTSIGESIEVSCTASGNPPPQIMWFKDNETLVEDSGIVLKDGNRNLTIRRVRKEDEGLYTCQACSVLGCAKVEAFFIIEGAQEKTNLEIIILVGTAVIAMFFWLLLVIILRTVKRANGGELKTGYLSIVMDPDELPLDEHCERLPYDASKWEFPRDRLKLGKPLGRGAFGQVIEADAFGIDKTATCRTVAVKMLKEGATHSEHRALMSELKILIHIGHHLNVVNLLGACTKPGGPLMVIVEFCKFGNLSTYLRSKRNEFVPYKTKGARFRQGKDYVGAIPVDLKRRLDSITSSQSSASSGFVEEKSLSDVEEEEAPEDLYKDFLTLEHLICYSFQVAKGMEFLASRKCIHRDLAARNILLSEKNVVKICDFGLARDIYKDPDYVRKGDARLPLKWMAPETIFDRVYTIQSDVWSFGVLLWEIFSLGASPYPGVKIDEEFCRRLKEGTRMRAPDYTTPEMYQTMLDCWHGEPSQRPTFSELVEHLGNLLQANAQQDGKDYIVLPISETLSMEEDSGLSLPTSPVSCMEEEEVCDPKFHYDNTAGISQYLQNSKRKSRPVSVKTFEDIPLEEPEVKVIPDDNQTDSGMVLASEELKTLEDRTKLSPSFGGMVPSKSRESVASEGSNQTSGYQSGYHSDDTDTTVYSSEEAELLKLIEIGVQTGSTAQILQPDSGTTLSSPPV
UniProt P61075, sequence (whole entry, looked up): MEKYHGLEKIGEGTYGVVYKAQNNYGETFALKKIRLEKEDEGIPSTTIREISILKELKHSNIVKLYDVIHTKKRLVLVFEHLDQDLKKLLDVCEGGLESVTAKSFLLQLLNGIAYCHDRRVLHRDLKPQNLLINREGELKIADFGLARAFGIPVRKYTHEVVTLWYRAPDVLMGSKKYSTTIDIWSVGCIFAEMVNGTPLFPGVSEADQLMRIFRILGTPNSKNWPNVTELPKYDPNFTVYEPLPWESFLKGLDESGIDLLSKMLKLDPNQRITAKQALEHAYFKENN

| Compound | target or system | assay | conditions | endpoint | value |
| --- | --- | --- | --- | --- | --- |
| Cc1cc(NS(=O)(=O)c2ccc(N=NN(C)O)cc2)no1 | – | ABTS scavenging | 60 µg/mL | inhibition | 27.8% |
| CNS(=O)(=O)c1ccc(Nc2ncc(C(F)(F)F)c(N3CCC[C@](C)(O)C3)n2)c(C)c1 | STK16 (Homo sapiens, UniProt O75716) | binding, competition with immobilised ligand | 1 µM | remaining binding | 88% |
| COc1cc(-c2cncc3c2CN(C)Cc2cc(N4CCNCC4)ccc2-3)cc(OC)c1OC | PRKG1 (Homo sapiens, UniProt Q13976) | enzyme activity, inhibitor | 1 µM | remaining activity | 96% |
| CNc1ncc2c(/C=C/C(=O)N3CCC(OC)CC3)nn(Cc3cccc(C(F)(F)F)c3)c2n1 | ERBB4 (Homo sapiens, UniProt Q15303) | enzyme activity, inhibitor, radiometric | 1 µM | remaining activity | 94% |
| COc1cnc(Nc2cccc(S(N)(=O)=O)c2)nc1N1CCN(c2ccccc2)CC1 | CRK2 (Plasmodium falciparum, UniProt P61075) | binding, competition with immobilised ligand | 1 µM | remaining binding | 76% |
| Cc1cccc(N(O)N=Nc2ccc(S(=O)(=O)Nc3onc(C)c3C)cc2)c1 | – | ABTS scavenging | 60 µg/mL | inhibition | 30.5% |
| FC(F)(F)Oc1cccc(-c2cnc3ccc(-c4ccncc4)nn23)c1 | TLK1 (Homo sapiens, UniProt Q9UKI8) | binding, competition with immobilised ligand | 5 µM | remaining binding | 87% |
| C[C@]1(O)CCCN(c2nc(Nc3ccc(S(=O)(=O)N[C@H]4CC[C@H](CN5CCN(c6ccc(C7CCC(=O)NC7=O)cc6F)CC5)CC4)cc3F)ncc2C(F)(F)F)C1 (some centres unmarked) | CDK8 (Homo sapiens, UniProt P49336) | binding, competition with immobilised ligand | 1 µM | remaining binding | 96% |
| COc1ccc2oc(-c3ccc4nc(N)oc4c3)c/c(=N\c3ccccc3NC(=O)CCN)c2c1 | BMX (Homo sapiens, UniProt P51813) | binding | 1 µM | remaining binding | 92% |
| CN(c1nccc(-c2cnn3ncccc23)n1)C1CC1 | STK35 (Homo sapiens, UniProt Q8TDR2) | binding | 1 µM | remaining binding | 100% |
| C1=C/COCc2cc(ccc2OCCN2CCCC2)Nc2nccc(n2)-c2cccc(c2)COC/1 | KIT (Homo sapiens, UniProt P10721, D816H) | binding | 0.1 µM | remaining binding | 40% |
| CCCCC(=O)Nc1ccc(-c2ccc3ncn(CCC)c(=O)c3c2)cn1 | STK38L (Homo sapiens, UniProt Q9Y2H1) | binding, competition with immobilised ligand | 0.5 µM | remaining binding | 100% |
| Cc1cc([C@@H](C)Nc2ccccc2C(=O)O)c2nc(N3CCC(F)(F)CC3)c(C#N)c(=O)n2c1 | KDR (Homo sapiens, UniProt P35968) | binding, competition with immobilised ligand | 10 µM | remaining binding | 83% |
| C=CC(=O)N1CCC(COCC(=O)N2CCN(c3nc(-c4cnc(N)nc4C(F)F)nc(N4CCOC[C@@H]4C)n3)CC2)CC1 | MAPK15 (Homo sapiens, UniProt Q8TD08) | binding, competition with immobilised ligand | 1 µM | remaining binding | 100% |

For quick reference, copied from above:
| Compound | target or system | assay | conditions | endpoint | value |
| --- | --- | --- | --- | --- | --- |
| CCCCC(=O)Nc1ccc(-c2ccc3ncn(CCC)c(=O)c3c2)cn1 | STK38L (Homo sapiens, UniProt Q9Y2H1) | binding, competition with immobilised ligand | 0.5 µM | remaining binding | 100% |
